Measurements collected from several papers.
A part holds a random share of what one study measured.

Study 1 — method: RNA Bind-n-Seq; form: RNA; sample: in vitro; tested at: 365 nM; baseline: no-protein control; direction: higher = stronger binding
Target: RNA binding protein fox-1 homolog 2, RRM domain, GST-SBP tag (RBFOX2, Homo sapiens, UniProt O43251-10, residues 100-194)
Setting: natural RNA segment, single round, ends assumed
Target sequence (chain): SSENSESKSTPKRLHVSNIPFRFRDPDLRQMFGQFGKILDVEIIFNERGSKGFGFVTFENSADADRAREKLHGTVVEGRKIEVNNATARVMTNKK
Sequence | RBNS enrichment (R)
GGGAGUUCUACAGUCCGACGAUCCGUGAACACAAAGCCUCGGAUCAGCCUUGAGAGAGGCCACACUACACACACCAGAUGGCAUCCUUGGGACCUGAAUCUAUCACCCAGGAAUCUCAAACUCCCUUUGGCCCUGGAAUUCUCGGGUGCCAA | 0.173
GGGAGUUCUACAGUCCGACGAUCCUUCAACUGUUUGAAAUAAUGCUCUCUGGGAGGCCAACAUUCCAAGAAUGUAUGAAGAACUGAAACCCUACCAUUUUUAUUCUUCUUUUACAUUAAAUUGUUGAGAACAGUGGAAUUCUCGGGUGCCAA | 0.357
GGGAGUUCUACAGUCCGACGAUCAUUUCCUGCACUGGGUUGUGCGUGUGUGUGUGUGUGCGCGUGUAUGUGCGUGUGUGUGCGCGUGUGUGUUAUUGUUUAAAUUGUAUUCACAGUGUUGUUUGCCUUGCUCAUGGAAUUCUCGGGUGCCAA | 1.84
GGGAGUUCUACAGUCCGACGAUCUUUCUUUUGCCUCCGAGAUGACCAAAUGCACUUGUGUCUUCUGUUUGUUGCUUGUUGAGUAAGCAGCUGGCACGCCUGUGGAGGAGGAGGCCUUGCCUCAACGUUCCUGGUGGAAUUCUCGGGUGCCAA | 4.71
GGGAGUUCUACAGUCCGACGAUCGGUCAUCACUUCUGUUCUAUGUUAUUAUCUAGGACUCAACGAGUCAUCUCAAACCAUAUUCUGUGAAUCCAUCUCAUGGUCCACUCCUGGGCUGCGGAAGGUACAAGGCGUGGAAUUCUCGGGUGCCAA | 0.273
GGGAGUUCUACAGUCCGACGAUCUUCUCGUUUCUAUGCAGCCCCAUAGUCCAAGGACACCCAGUCCACAUCUACCAUAUAGCAAGUUUAGUAAGGGAAGGCAGCAUACGUCCCAGGGACAGUGGGUUUGGAUCUGGAAUUCUCGGGUGCCAA | 1.82
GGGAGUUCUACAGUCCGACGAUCCUAGCUACCAGUGCCUCCCAAUGCUUAGUGCACAGUACUGUAGACUGGCCAUCACCCCUCUCCUUGGAAAAUGCCACUGUGCUGUUUGAAAAAAAGCAGCCUUUUAGGGCUGGAAUUCUCGGGUGCCAA | 0.744
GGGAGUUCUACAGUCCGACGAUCUGGAUGGGUGUCGACCUUGCAGCAGAGAAGGCGAUAAACAAGCUGAUGAGGAUAUCCAAGGAACCCAAAACCUGCUAACAUCGGUUGAAUCUGAAACGGCAGCUUCUGAGUGGAAUUCUCGGGUGCCAA | 0.576
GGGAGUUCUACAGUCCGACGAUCCUAGGGGUAGGCGAUUGACUGCCUGAUUUUAGAGCAGGGAGCCCGGCCCCUUCUUUUGUCUUCCUGGCAGGAAAGCAAGACAGUGAGCCAUGCCCUAAAACACUCACACCUGGAAUUCUCGGGUGCCAA | 0.378
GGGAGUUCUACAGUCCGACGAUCGUGCUCCUUGGCUGGGUGAGCUGCCAGGCAAGUUUAAAUAUGCUGUGUGUGCCACAUUUUUAAAUUUUGUCAAGGUUUACCCACACACACACCAAUCAAAACCUUAUUGGUGGAAUUCUCGGGUGCCAA | 0.385
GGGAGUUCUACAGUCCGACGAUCCCUGGACCGGCCUUCUCAGAUGGCCGAAGCAGAUCCAACAUUAUCUUCCAUCUGUUUCCUUCCAUUUGCAUAUCUCCAGUAUCCAAAUACCUCCGUCUGACUCCUCAUUCUGGAAUUCUCGGGUGCCAA | 0.45
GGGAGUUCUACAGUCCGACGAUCUCAGAUUUAUUUUUUAUUAAGCAUUAUACCAUGGGCUGUCCUGUGCUCCUGUCACUCUUCAAAAACACCCCUUCUAUUACUGCCUCCGGGGAUGAAGCAGUAGCUAGGUUUGGAAUUCUCGGGUGCCAA | 1.36

Study 2 — method: RNA Bind-n-Seq; form: RNA; sample: in vitro; tested at: 200 nM; setting: whole 134-nt RNA, ends assumed; with: 150 mM LiCl; baseline: input library; direction: higher = stronger binding; all molecules: 7-deaza-guanosine replaces G
Target: Fragile X messenger ribonucleoprotein 1, C-terminal low-complexity region (Fmr1, Mus musculus, UniProt P35922)
Sequence | log2 enrichment
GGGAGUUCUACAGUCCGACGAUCGAUCUCCGGGCUCAGUUGCAGAUUCUGGCCAACAUGGACAGCCAGCUAAAAGAGCUACAGAGUCAGCAUACCCAUUGUGCCCAGGACCUGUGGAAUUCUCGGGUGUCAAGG | -0.813
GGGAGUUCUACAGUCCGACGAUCCUCAAGUCCUGUGCUACACAUCGUAUGUACCGAAUCGGGAAAGGGAGGGUGGGAAAGUAUUAUGUUACGCCGUUCGGAUCUGCACUUCCAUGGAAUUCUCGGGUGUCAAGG | -0.998
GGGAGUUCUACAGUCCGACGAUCUCCUGUGCUACACAUCGUAUGUACCGAAUCGGGGUGGGGUUUUUGGGGAAAAAAAGGGGAAAGUAUUAUGUUACGCCGUUCGGAUCUGCAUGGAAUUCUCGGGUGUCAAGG | -1.6
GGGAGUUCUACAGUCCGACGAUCUGGGUGGUGGAUUUUGUUUAUUUUUUUAGCUCAUUUCCAGGGGUGGGAAUUUUUUUUUAAUAUGUGUCAUGAAUAAAGUUGUUUUUGAAAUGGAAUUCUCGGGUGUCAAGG | 0.97
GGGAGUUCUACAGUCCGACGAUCAAGUCCUGUGCUACACAUCGUAUGUACCGAAUCGGGAAAAAGGGAAAGGGAAAGGGAAAGUAUUAUGUUACGCCGUUCGGAUCUGCACUUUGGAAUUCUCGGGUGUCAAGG | -0.292
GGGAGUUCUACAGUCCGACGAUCGCAGGAAGUAAAAACAAAUGGAAAUGCUUCGGAUAGUGGCAGGGGUGGGGGUUGCUAAGGAAAGGGUGGGAUGGUAGUGGGUAAAGAGUUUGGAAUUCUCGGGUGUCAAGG | 1.57
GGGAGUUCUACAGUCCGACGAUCAAGUCCUGUGCUACACAUCGUAUGUACCGAAUCGGGGUUUUGGGUUUUGGUUUUGGGAAAGUAUUAUGUUACGCCGUUCGGAUCUGCACUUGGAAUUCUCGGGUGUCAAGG | -2.03
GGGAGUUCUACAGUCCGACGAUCCCUCAAGUCCUGUGCUACACAUCGUAUGUACCGAAUCGGAGGUUUGGUUUGGAAAGUAUUAUGUUACGCCGUUCGGAUCUGCACUUCCAGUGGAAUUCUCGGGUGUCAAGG | -1.23
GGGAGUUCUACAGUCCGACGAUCCUGUGCUACACAUCGUAUGUACCGAAUCGGGGAAAAAGGGGUUUUUGGGGAAAAAAAGGGGAAAGUAUUAUGUUACGCCGUUCGGAUCUGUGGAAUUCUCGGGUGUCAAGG | -0.0047
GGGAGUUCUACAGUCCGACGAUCUGUUCUGCAGAGGGGCGGUGUCAUUACUGAUGAAGAGGAAACCUCUAAGAAGAUAGCUGACCAGUUGGACAACAUUGUGGACAUGCGCGAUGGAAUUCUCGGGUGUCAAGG | -3.64
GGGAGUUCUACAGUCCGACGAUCAGUCCUGUGCUACACAUCGUAUGUACCGAAUCGGAAAAAGGAAAAAGGGGAAAAAGGAAAGUAUUAUGUUACGCCGUUCGGAUCUGCACUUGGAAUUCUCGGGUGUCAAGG | -1.37

Study 3 — method: universal PBM; form: double-stranded DNA, one strand shown; sample: in vitro; tested at: not given; direction: higher = stronger binding
Target: Sal-like protein 4, full length isoform B (SALL4, Homo sapiens, UniProt Q9UJQ4-2, residues 1-616)
Setting: 8-mer, flanks averaged, mean of replicates
Sequence | E-score
GAGGCCTC | -0.229
CTCCAGTA | 0.0632
ACGTGACC | -0.191
CCGCAATC | -0.209
GACTGCCC | -0.258
TCGTTCCA | 0.128
CTACTGAC | -0.0508
CCACGCGC | -0.228
ACAAACAT | 0.201
AGGCACTC | -0.189
AAGTCACT | 0.178
GGGTCAGA | -0.222
CAACCCCC | -0.123
ACTGGCAG | -0.164
AATCACAT | 0.178
CTCTAGAG | -0.146
CGTCGACC | -0.127
CGTGATCA | 0.181
CTCAGGCC | -0.277
CGCCACGA | -0.0532
GTGGAATA | 0.14
ACTGGTGA | -0.0158
TCTAAGAA | 0.1
AGCCCTGG | -0.282

Study 4 — method: competition protein-binding microarray; form: double-stranded DNA, one strand shown; sample: in vitro; tested at: 2 µM; with: Pho4 competitor, 0.05 µM; direction: higher = stronger binding
Target: Centromere-binding protein 1, full length, His-tagged (CBF1, Saccharomyces cerevisiae, UniProt P17106, residues 1-351)
Chain of UniProt P17106 (whole entry, looked up): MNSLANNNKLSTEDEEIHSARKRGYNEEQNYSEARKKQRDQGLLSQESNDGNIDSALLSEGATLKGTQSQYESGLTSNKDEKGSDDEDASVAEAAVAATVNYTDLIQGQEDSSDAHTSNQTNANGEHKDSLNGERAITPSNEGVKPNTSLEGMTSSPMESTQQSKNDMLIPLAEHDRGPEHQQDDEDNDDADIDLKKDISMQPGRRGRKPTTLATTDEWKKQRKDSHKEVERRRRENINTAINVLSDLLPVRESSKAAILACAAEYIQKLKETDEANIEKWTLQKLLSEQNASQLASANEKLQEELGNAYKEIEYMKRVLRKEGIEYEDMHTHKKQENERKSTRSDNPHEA
Setting: whole 60-bp probe, lowest competitor level
Sequence | fluorescence intensity [a.u.]
CTTTCCCGATCTTTTCACGTGTAATTAGCACATTTGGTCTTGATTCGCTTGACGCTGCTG | 672
TAATCCTCAACACTACCCGTGGTGAATGTCCTAAAGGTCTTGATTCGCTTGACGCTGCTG | 68.5
CAGTCTCTGCAAAAGCACGTGCGATGTCTCTGGTGTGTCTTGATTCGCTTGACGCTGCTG | 1440
CACACCGTACTTGAGCACATGTCTGGATTGCTAGCTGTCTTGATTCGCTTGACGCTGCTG | 195
GCAAACGACGAGCTTCACGTTCAGATTCCATTAGAAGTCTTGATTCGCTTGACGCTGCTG | 72.6
CGGGGTTAAGTTTGCCGTGTGGGTGGCTTGCAGCAGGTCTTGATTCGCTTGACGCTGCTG | 54.3
TGCGCAACAACTTTTCACGTGTATTTATGTCTAGAAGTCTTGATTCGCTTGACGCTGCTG | 897
GTCTTGTCTCATTGCCATGTGGGTGTCCCCACTTCAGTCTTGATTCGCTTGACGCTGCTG | 95.3
CGGATGCGCTGGCTGTACGTGACGGTGAAGTAGCTAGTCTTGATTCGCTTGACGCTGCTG | 67.2
TCCAATCTTTTCCGTCACATGTACACACTCATATACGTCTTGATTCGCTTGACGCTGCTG | 837
AAAGCGGTAATTTGGGTAGTGGGTGCAGATATCTATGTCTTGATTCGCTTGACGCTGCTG | 108
CCTAATGCTACTCATCACAGCAATAAGGACACCTTTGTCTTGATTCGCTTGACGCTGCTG | 62
GAGATACTTAAGCATCATGTGATGGTTTTGACACAAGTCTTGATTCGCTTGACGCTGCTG | 1240
CTAATTGTGCTTTTGCACGTGCCAGGTTTATTAAACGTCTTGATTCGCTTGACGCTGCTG | 2690
CTTTCCCGATCTTTTCACGTGAAGTTAGCACATTTGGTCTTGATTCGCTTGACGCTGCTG | 784
TTTTTAGTAGTTTGTCATGCTGTATTAATGATTTTCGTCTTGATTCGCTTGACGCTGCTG | 92.9
ATCCGATTGGATGGACACATGCGATTCAACGCCGCTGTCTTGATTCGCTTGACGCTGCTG | 80.5
CTTCTGTAAATTTGACAAGTGGGTGGACGCGCCCCGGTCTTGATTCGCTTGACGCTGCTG | 73.9
GTCTTGTCTCATTTTCACGTGATCTTCCCCACTTCAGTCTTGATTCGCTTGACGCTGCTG | 4390
TAATCGCAGTAGTTGAGCGTGCGATTTGCGCATTTGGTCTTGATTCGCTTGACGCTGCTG | 70.4
CTTTCCCGATCTTGTCACGGTACTTTAGCACATTTGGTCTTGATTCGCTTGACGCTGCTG | 232
CATACCCAACCTTGATTGGTGGGTGAAGATATTTGTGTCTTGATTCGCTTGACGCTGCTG | 59.1
CTACTACAGATATTACATGTGGCGAAAAAGACAAGAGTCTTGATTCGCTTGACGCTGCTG | 101
TCGCACTGAAGCGATCAGCTGATGAACAGGCGGTACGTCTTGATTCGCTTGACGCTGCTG | 395
TCCTGTATTTTAAAGCACGCAAGGCTGAAATAAACGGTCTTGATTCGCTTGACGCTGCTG | 85.4
